# Measured values of several laboratories.
# Every numbered part comes from another study and shows a few of its results, in no order. Several values in a cell are separate wells, animals, samples, runs or records.
# UniProt P28223, sequence (whole entry, looked up): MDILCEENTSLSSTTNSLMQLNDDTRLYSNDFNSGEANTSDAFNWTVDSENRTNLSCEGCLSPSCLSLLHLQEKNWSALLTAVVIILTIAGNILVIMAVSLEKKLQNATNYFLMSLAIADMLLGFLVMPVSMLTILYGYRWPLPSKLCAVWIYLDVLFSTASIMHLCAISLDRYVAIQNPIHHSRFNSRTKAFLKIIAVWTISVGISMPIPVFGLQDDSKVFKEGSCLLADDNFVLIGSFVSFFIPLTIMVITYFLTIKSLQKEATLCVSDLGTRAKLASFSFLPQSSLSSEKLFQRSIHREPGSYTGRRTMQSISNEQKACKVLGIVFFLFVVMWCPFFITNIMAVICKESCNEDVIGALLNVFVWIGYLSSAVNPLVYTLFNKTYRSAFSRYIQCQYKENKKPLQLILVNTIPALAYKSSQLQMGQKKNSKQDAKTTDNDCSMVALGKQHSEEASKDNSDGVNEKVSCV
# UniProt P35372, sequence (whole entry, looked up): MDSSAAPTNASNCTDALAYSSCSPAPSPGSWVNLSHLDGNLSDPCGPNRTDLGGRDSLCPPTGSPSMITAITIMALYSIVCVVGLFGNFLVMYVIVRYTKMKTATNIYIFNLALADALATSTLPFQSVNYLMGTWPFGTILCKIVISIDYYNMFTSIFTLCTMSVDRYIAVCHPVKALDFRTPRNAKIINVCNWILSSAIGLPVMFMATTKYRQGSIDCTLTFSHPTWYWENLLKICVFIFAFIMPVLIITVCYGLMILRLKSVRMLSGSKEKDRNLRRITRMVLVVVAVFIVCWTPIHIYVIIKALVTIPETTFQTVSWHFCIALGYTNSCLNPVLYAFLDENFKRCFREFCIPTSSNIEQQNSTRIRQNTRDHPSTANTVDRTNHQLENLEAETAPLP
# UniProt P08908, sequence (whole entry, looked up): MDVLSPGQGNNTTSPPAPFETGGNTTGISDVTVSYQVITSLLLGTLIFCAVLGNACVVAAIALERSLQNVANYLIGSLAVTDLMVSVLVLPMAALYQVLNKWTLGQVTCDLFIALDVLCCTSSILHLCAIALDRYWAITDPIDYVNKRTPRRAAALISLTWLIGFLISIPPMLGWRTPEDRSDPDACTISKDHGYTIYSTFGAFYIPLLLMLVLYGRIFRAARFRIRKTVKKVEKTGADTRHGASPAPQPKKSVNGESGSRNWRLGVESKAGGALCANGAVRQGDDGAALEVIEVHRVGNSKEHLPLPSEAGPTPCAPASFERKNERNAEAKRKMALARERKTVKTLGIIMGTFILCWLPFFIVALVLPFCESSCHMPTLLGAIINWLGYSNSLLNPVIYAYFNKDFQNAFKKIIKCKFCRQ
# UniProt P41145, sequence (whole entry, looked up): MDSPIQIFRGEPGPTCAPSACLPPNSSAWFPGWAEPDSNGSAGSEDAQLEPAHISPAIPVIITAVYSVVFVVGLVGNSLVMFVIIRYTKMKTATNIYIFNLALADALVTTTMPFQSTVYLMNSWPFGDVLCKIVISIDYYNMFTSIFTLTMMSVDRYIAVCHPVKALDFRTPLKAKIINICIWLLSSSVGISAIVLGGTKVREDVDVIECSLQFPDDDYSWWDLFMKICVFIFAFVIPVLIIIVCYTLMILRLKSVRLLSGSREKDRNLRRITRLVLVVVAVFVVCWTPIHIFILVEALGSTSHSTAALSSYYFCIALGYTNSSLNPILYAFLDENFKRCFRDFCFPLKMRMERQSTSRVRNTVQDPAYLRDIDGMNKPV
# UniProt P41143, sequence (whole entry, looked up): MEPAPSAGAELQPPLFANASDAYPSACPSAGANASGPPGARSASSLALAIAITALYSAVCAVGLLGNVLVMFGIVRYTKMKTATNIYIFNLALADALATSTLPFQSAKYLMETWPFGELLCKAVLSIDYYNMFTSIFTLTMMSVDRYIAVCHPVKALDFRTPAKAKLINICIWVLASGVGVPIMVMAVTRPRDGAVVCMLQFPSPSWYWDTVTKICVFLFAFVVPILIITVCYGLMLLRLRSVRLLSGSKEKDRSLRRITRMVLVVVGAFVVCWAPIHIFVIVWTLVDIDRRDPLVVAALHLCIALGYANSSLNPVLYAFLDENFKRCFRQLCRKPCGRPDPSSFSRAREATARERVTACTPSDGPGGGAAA
# UniProt P11229, sequence (whole entry, looked up): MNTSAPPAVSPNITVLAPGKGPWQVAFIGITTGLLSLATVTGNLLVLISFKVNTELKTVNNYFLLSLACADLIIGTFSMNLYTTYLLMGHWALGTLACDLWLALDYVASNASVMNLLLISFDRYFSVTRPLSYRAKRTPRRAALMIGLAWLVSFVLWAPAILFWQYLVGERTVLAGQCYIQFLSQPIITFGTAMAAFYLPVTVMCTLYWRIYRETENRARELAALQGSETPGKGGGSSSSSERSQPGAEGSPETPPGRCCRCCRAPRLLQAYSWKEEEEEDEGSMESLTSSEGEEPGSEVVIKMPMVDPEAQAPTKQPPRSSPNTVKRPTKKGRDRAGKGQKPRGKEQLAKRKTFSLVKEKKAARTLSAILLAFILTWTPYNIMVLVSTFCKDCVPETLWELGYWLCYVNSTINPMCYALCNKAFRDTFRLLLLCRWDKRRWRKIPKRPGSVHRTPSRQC
# UniProt P21918, sequence (whole entry, looked up): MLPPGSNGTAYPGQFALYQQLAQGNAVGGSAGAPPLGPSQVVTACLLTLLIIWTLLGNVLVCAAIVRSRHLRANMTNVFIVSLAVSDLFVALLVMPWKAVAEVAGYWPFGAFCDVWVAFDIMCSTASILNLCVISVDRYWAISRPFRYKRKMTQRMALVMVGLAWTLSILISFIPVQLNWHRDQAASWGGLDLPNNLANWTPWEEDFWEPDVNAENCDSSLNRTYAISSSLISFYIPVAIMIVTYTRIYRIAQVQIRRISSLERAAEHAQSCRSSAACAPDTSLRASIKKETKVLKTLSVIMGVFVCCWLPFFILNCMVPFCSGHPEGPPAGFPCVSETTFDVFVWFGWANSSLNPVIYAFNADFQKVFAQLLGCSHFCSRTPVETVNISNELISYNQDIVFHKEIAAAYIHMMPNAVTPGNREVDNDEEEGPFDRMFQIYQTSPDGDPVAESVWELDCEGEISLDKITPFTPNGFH
# UniProt P20309, sequence (whole entry, looked up): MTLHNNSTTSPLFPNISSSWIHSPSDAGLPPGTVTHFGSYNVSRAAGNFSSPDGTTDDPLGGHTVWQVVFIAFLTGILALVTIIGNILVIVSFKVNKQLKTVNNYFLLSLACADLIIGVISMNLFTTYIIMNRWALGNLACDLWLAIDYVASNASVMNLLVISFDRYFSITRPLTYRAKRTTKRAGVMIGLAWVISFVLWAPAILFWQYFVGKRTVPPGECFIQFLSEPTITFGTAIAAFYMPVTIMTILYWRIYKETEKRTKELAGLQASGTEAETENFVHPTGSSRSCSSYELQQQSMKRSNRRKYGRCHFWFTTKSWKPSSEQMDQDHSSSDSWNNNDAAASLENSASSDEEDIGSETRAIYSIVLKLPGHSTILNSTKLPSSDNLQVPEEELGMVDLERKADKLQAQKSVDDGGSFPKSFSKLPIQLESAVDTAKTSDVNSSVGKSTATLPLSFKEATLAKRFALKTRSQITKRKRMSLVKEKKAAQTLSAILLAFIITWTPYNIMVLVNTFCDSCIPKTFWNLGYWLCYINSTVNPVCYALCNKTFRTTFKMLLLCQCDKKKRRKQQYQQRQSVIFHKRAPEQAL

# Set 1
# Structure (SMILES): CN1C(=O)[C@@H](N2CCc3c(nn(Cc4ccccc4)c3Br)C2=O)COc2ccccc21
# Effect on: cell-free assay
# Concentration: 10 µM
target,inhibition [%]
"OPRK1 (Homo sapiens, UniProt P41145)",16.5
"OPRD1 (Homo sapiens, UniProt P41143)",30.1
"DRD5 (Homo sapiens, UniProt P21918)",41.7
"CHRM3 (Homo sapiens, UniProt P20309)",1.23
"OPRM1 (Homo sapiens, UniProt P35372)",14.6
"CHRM1 (Homo sapiens, UniProt P11229)",21.6
"HTR1A (Homo sapiens, UniProt P08908)",16.9
"HTR2A (Homo sapiens, UniProt P28223)",50.6

# Set 2
# Organism: Vesicular stomatitis virus
# Effect on: pseudovirus infection
# Method: FDA-approved drug library screen
# Concentration: concentration not given
# Setting: VSV-G control pseudotype
# Reference: vehicle
Compound,GFP-positive cells
CCCC(=O)OCOC(=O)C1=C(C)NC(C)=C(C(=O)OC)C1c1cccc(Cl)c1Cl (stereo not shown),86%
O=C([O-])/C=C/C(=O)[O-].[Fe+2],143%
O=C([O-])c1cc(/N=N/c2ccc(O)c(C(=O)[O-])c2)ccc1O.[Na+].[Na+],89.1%
COc1cc2c(cc1OC)C1CC(=O)C(CC(C)C)CN1CC2 (stereo not shown),109%
Cc1nc2n(c(=O)c1CCN1CCC(c3noc4cc(F)ccc34)CC1)CCCC2,88.4%
COCCCOc1ccnc(CSc2nc3ccccc3[nH]2)c1C,121%

# Set 3
# Target: chymotrypsin
# Effect on: enzyme activity
# Mode: inhibitor
# Concentration: 10 µM
# Setting: with DTT
SMILES,inhibition [%]
CC(CN1CC(=O)NC(=O)C1)N1CC(=O)NC(=O)C1 (stereo not shown),-0.9
C[C@H]1COC2=C1C(=O)C(=O)c1c2ccc2c1CCCC2(C)C,-3.7
O=c1cc(-c2ccccc2)oc2cc(O)c(O)c(O)c12,11.1
O=C(c1ccc(Cl)cc1)c1cc([N+](=O)[O-])ccc1N1CCOCC1,7.3
O=C(CCl)c1ccccc1,7.8
O=C1C=Cc2cc(Br)ccc2C1=O,8.5
Cc1cc(-c2ccc(/C=C3/SC(Nc4ccc(Cl)c(C(=O)O)c4)=NC3=O)o2)c([N+](=O)[O-])cc1C,3.3
O=C(O)C1=CC(=C(c2ccc(O)c(C(=O)O)c2)c2ccc(O)c(C(=O)O)c2)C=CC1=O,6.2
S=C=NCc1ccccc1,10.2
CCN(CC)C(=S)S,6.5

# Single results of other studies
SMILES,target,assay,how to read,endpoint,result
CN(C(=O)c1ccn2ncc(-c3ccc(C(N)=O)cc3)c2c1)c1ccc(C#N)cn1,C. parvum PI4K Y907F,"enzyme activity, inhibitor, ADP-Glo",reference: mutant over wild type,fold IC50 shift,0.66 and 0.92
